Results from different studies.
A part holds a random share of what one study measured.

Set 1
Target: Fragile X messenger ribonucleoprotein 1, C-terminal low-complexity region (Fmr1, Mus musculus, UniProt P35922)
Technique: RNA Bind-n-Seq
Molecule type: RNA
Matrix: in vitro
Tested at: 200 nM
Notes: whole 134-nt RNA, ends assumed
Added: 150 mM KCl
Reference: input library
Reading: higher = stronger binding
All sequences stand within: GGGAGUUCUACAGUCCGACGAUC … UGGAAUUCUCGGGUGUCAAGG
Oligonucleotide	log2 enrichment
UCCUGUGCUACACAUCGUAUGUACCGAAUCGGGGUUUUUUGGGUUUUUUGGGUUUUUUGGAAAGUAUUAUGUUACGCCGUUCGGAUCUGC	0.177
UGGGAGGUGAAUUUUGUUUAUUUUUUUAGCUCAUUUCCAGGGGUGGGAAUUUUUUUUUAAUAUGUGUCAUGAAUAAAGUUGUUUUUGAAA	0.143
CUCAAGUCCUGUGCUACACAUCGUAUGUACCGAAUCGGGAGGGAAAGGGUGGGAAAGUAUUAUGUUACGCCGUUCGGAUCUGCACUUCCA	1.21
GCAGGAAGUAAAAACAAAUGGAAAUGCUUCGGAUAGUGGCAGGGGUGGGGGUUGCUAAGGAAAGGGUGGAAUGGGAGUGGGUAAAGAGUU	0.122
UGGCCCUGGUGGCAUGCGGGGAGGAAGAGGUGGCCUCAUGGAUCGUGGUGGUCCCGGUGGAAUGUUCAGAGGUGACCGUGGUGGAGACAG	-0.0267
GCAGGAAGUAAAAAUAAAUGGAAAUGCUUCGGAUAGUGGCAGGGGUGGGGGUUGCUAAGGAAAGGGUGGGAUGGGAGUGGGUAAAGAGUU	0.191
UCGGAGGUGGAUUUUGUUUAUUUUUUUAGCUCAUUUCCAGGGGUGGGAAUUUUUUUUUAAUAUGUGUCAUGAAUAAAGUUGUUUUUGAAA	-0.758
UGGACUGCCUAUGGAAGAAGAAGUUCAAGAAGGAGCACGAGGAGUUUGAGACCAUGGAGAACGUGAACCGCCUUCUUCUGGAGAACGUCC	-0.361

Set 2
Target: Max dimerization protein 1, bHLH-zipper, MAX partner unstated (MXD1, Homo sapiens, UniProt Q05195, residues 56-136)
Technique: protein-binding microarray
Molecule type: double-stranded DNA, one strand shown
Matrix: in vitro
Tested at: not given
Notes: k-mer, scored over probes, only values ≥0.25
Reading: higher = stronger binding
Construct (chain): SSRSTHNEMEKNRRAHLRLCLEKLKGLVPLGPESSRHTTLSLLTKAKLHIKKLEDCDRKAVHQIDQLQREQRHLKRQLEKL
Oligonucleotide	E-score
GCATGGAC	0.363
CGTGCTTC	0.293
CACCCCGC	0.283
AGGGGCAT	0.27
ACATGTGC	0.467

Set 3
Cell line: HEK-293T/ACE2
Tested at: concentration not given
Time: 16 (unit not given)
Reference: vehicle
SMILES	viability [%]
O=C(NC1CCN(CCCCC2(C(=O)NCC(F)(F)F)c3ccccc3-c3ccccc32)CC1)c1ccccc1-c1ccc(C(F)(F)F)cc1	58.4
CCCCC(CC)COC(=O)C(C#N)=C(c1ccccc1)c1ccccc1 (centres unmarked)	96.1
CN(C)CCn1nnnc1SCC1=C(C(=O)O)N2C(=O)[C@@H](NC(=O)Cc3csc(N)n3)[C@H]2SC1	105
CCCCC(=O)N(Cc1ccc(-c2ccccc2-c2nnn[nH]2)cc1)[C@H](C(=O)O)C(C)C	101

Set 4
Target: Replicase polyprotein 1ab, polymerase (rep, Severe acute respiratory syndrome coronavirus 2, UniProt P0DTD1)
Effect on: enzyme activity
Action: inhibitor
Tested at: 20 µM
SMILES	inhibition
CCCC(O)C(CC)CO (centres unmarked)	-2.93%
O=C(N[C@H]1CN2CCC1CC2)c1cc2cccc(Cl)c2s1	-1.1%
O=C1OC(CN2CCOCC2)CN1/N=C/c1ccc([N+](=O)[O-])o1 (centres unmarked)	-2.09%
CNC(=O)c1cccc(-c2ccc3c(N4CCOC[C@@H]4C)nc(N4CCOC[C@@H]4C)nc3n2)c1	8.82%
Nc1ccn([C@@H]2O[C@@](CO)(CCl)[C@@H](O)[C@H]2F)c(=O)n1	-0.79%
CC(=O)N[C@@H](CC(C)C)C(=O)O	18.8%
O=C(N[C@@H](Cc1c[nH]c2ccccc12)C(=O)O)c1ccc(Cl)cc1	0.09%
Cc1cnc(C(=O)O)c[n+]1[O-]	-3.15%
CSc1nc2cc(Cl)c(Oc3cccc(Cl)c3Cl)cc2[nH]1	2.04%
CC(=O)/N=c1/sc(S(N)(=O)=O)nn1C	-0.69%
O=C1c2cccc3c2[C@H](CCC3)CN1[C@@H]1CN2CCC1CC2	-1.52%
CCOC(=O)c1ncn2c1CN(C)C(=O)c1cc(F)ccc1-2	-3.03%
O=CN1CCC(C(=O)NCCN2CCC(=C3c4ccccc4C=Cc4ccccc43)CC2)CC1	-2.77%
CCC(=O)N1CCOc2c(cc(-c3ccc(OC)c(OC)c3)cc2OC[C@H]2CCCN(C)C2)C1	-2.65%
CC(C)(Sc1ccc(CCN(CCCCC2CCCCC2)C(=O)NC2CCCCC2)cc1)C(=O)O	-0.32%
CC(C)(C)NCC(O)COc1cccc2[nH]c(=O)[nH]c12 (centres unmarked)	-6.83%
Cn1nc(-c2ccc(C(F)(F)F)cc2)nc2c(=O)n(C)c(=O)nc1-2	37%
C=CCc1ccccc1OCC(O)CNC(C)C (centres unmarked)	4.12%
NC(=O)C1CCCc2c1[nH]c1ccc(Cl)cc21 (centres unmarked)	-3.21%
CN1CCc2c(c3ccccc3n2Cc2ccc(C(=O)NO)cc2)C1	-0.84%
C=CC1=C(C(=O)O)N2C(=O)[C@@H](NC(=O)/C(=N\OCC(=O)O)c3csc(N)n3)[C@H]2SC1	-15.3%
COc1ccccc1CC(=N)N1C[C@@H]2C(=O)CCC(c3ccccc3)(c3ccccc3)[C@@H]2C1	-2.12%
Cc1ccc(NC2=NCCN2)c(Cl)c1	3.69%
CCC(N)C(O)c1ccc(O)c(O)c1 (centres unmarked)	-0.83%
C[C@H]1O[C@@H](n2cc(F)c(=O)[nH]c2=O)[C@H](O)[C@@H]1O	17.3%

Set 5
Target: Centromere-binding protein 1, full length, N-terminal tag (CBF1, Saccharomyces cerevisiae, UniProt P17106, residues 1-351)
Chain of UniProt P17106 (whole entry, looked up): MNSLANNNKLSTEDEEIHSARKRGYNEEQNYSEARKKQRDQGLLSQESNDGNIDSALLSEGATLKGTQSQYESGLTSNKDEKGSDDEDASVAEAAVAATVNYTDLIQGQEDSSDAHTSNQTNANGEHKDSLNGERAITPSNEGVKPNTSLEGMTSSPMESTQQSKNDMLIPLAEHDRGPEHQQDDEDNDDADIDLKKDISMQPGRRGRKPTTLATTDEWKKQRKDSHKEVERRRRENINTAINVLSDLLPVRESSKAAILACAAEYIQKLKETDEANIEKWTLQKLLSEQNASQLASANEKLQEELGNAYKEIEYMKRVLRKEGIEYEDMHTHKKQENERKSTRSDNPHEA
Technique: protein-binding microarray
Molecule type: double-stranded DNA, one strand shown
Matrix: in vitro
Tested at: 0.8 µM
Notes: whole 60-bp probe, no competitor
Reading: higher = stronger binding
All sequences stand within: … GTCTTGATTCGCTTGACGCTGCTG
Oligonucleotide	fluorescence intensity [a.u.]
CCTAACTACTATATCCTCGTGAAATAGCTTCGTACA	578
GAATAAAAATGTTCACGTGTGACTGCTCCATTTTAG	3740
CTAACCAACCGGCGTCACCAAAAGCAAAAATATTTC	522
GAATTGCGTTGGAGCCATCTCCTGAATTCCATTTAG	507
GAAGAATAAAGATATCACGTATACGGGAGAGATTAG	573
GAACGTTTACAGCCATGTGAGGCAGTTACTTCTTAG	644
CTAGGCACACTTTAACATGTGCATATATGTGTATTC	669
TGTACGAAGCTATACAACGTGCTTATAGTAGTTAGG	607

Set 6
Target: Replicase polyprotein 1ab, main protease (rep, Severe acute respiratory syndrome coronavirus 2, UniProt P0DTD1)
Effect on: enzyme activity
Action: inhibitor
Tested at: 20 µM
Notes: hit confirmation, no DTT
Structure (SMILES)	inhibition [%]
O=C(O)c1cc(O)c(O)c(O)c1	58.4
CC(=O)[O][Pt]([NH2])([Cl])([Cl])([NH]C1CCCCC1)[O]C(C)=O	95.9
Oc1cccc(-c2c3nc(c(-c4cccc(O)c4)c4ccc([nH]4)c(-c4cccc(O)c4)c4nc(c(-c5cccc(O)c5)c5ccc2[nH]5)CC4)C=C3)c1	77.8

Repeated from above (set 1):
Oligonucleotide	log2 enrichment
UCCUGUGCUACACAUCGUAUGUACCGAAUCGGGGUUUUUUGGGUUUUUUGGGUUUUUUGGAAAGUAUUAUGUUACGCCGUUCGGAUCUGC	0.177
UGGGAGGUGAAUUUUGUUUAUUUUUUUAGCUCAUUUCCAGGGGUGGGAAUUUUUUUUUAAUAUGUGUCAUGAAUAAAGUUGUUUUUGAAA	0.143
CUCAAGUCCUGUGCUACACAUCGUAUGUACCGAAUCGGGAGGGAAAGGGUGGGAAAGUAUUAUGUUACGCCGUUCGGAUCUGCACUUCCA	1.21
GCAGGAAGUAAAAACAAAUGGAAAUGCUUCGGAUAGUGGCAGGGGUGGGGGUUGCUAAGGAAAGGGUGGAAUGGGAGUGGGUAAAGAGUU	0.122
